Results collected from several papers.
Every numbered part comes from another study and shows a few of its results, in no order. Positions count from the first letter of the parent shown.

Sample 1
Target: Interferon regulatory factor 5, full length, phosphomimetic (IRF5, Homo sapiens, UniProt Q13568-2, residues 1-514, K96S/S451D/S453D/S456D/S462D)
Technique: protein-binding microarray
Molecule type: double-stranded DNA, one strand shown
Sample: in vitro
Concentration: 250 nM
Notes: 60-bp whole probe
Added: salmon DNA 0.4 mg/ml
Reference: random background probes
Direction: higher = stronger binding
All sequences stand within: GCCTAGCAC … GTCTTGATTCGCTTGACGCTGCTG
For `TTAGATACCAGTTTCGATTAGTGCTAG`, the log fluorescence was 9.53 z-score.
For `TTAGGTTTCGATATCGGTTAGTGCTAG`, the log fluorescence was 10.4 z-score.
With `TTAGATTTCAAACTGGATTAGTGCTAG` the log fluorescence was 0.0478 z-score.
With `GACGGTCTCGGTTTCGGGGCGTGCTAG` the log fluorescence was 2.63 z-score.
For `GACGGTATCCTTATTCTGACGTGCTAG`, the log fluorescence was -0.00592 z-score.
For `GACGGTTTCGGGACTGGCGACGTGCTA`, the log fluorescence was 4.82 z-score.
`TTAGGTATCGGGTATCTGTTAGTGCTA` has a log fluorescence of 4.46 z-score.
With `GGCGGTTTCCTTTTCCTGACGTGCTAG` the log fluorescence was 1.31 z-score.

Sample 2
Target: RNA binding protein fox-1 homolog 2, RRM domain, GST-SBP tag (RBFOX2, Homo sapiens, UniProt O43251-10, residues 100-194)
Technique: RNA Bind-n-Seq
Molecule type: RNA
Sample: in vitro
Concentration: 365 nM
Notes: natural RNA segment, single round, ends assumed
Reference: no-protein control
Direction: higher = stronger binding
Target sequence (chain): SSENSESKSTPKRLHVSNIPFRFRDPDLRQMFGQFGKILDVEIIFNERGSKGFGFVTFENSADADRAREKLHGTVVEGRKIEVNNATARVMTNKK
`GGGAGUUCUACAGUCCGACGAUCGGGCUUCUCAGAGGUGGAGCUGGUGCAGAUGGUGGUGGACGGAGUGAAGCUGCUCAUCGAGAUGGAGCAGCGGCUGGAGCAGGGCCAGGCCAUCGACGACCUCAUGCCUGUGGAAUUCUCGGGUGCCAA` — result for “RBNS enrichment (R)”: 1.1.
For `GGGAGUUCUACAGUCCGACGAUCACUGCUUCACCCUUCACAGAUUUAAUACAAUGUAUAAGCCUUACUUUCAUAACAUAUUCUACAAGUUUCCUUAAGACUGUUGUUAUAGUCUGGCUGAACCCAUUUCCACCUGGAAUUCUCGGGUGCCAA`, “RBNS enrichment (R)” read 0.351.
For `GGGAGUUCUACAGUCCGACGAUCGGAUGCUGUGCUACGUGUGAAAUCUGUCUUUGCGGGGCCUGUCUCAGUGAUUCGCUUUUGGUAUUUGUUUGUAGCUUUCCUGGAAGUCAAAUAAAUGUUUCCCCCACUCCUGGAAUUCUCGGGUGCCAA`, “RBNS enrichment (R)” read 0.332.
`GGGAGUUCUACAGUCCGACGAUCUCUGAUGUGUGAAAUUUAAGGAAAGAGCCAUUUAAUAAAUGCCAAGCAGGGCAAUGCAGCCAAAUAUUAGAGUUGAUGUGCAGUCUUAGGUCCUUUUUAAUCUGGGGUAUUGGAAUUCUCGGGUGCCAA` — result for “RBNS enrichment (R)”: 0.753.
`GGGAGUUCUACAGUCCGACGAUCAGACCUCAUCUCUAUCAAAAAAUAAAAAUUAGCUAGAUGUGGUGGCAUGAGCCUGUGUUCCCAGCUGCUUAGGAGGCUGAAGCAGGAGGAUUGAUUGAGCCUGCGAGGCCUGGAAUUCUCGGGUGCCAA`: “RBNS enrichment (R)” 4.66.
`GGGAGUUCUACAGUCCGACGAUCUAGAAAUAUUUCUGAACAUAUCAUGUAAUUUUUUUAAGAUAACUGUGAAAACAUUACAUACAUGUAUAUAUUUAGACAUGAGCUGCUGCUAUAUAUUGAAUGGGCCCUUUUGGAAUUCUCGGGUGCCAA` — result for “RBNS enrichment (R)”: 0.618.
For `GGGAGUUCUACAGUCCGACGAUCCUCCAGACGGCCUGCCAUCCAGCCCUCUGGCCUGAGGAAGACCCCCAUAGGCUCCGGACAGGCAGGUCCUUUCUAUCCCAUGCCACCACUUCCUUCCCCCUUUAACUGAGUGGAAUUCUCGGGUGCCAA`, “RBNS enrichment (R)” read 0.502.
For `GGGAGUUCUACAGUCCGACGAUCUGAAAAAAAAAAAAAUUAUUUUGCAUUCAGCAUGGACUCGACCAGGCAUCUAUGGAGAUUAUUUUUUUGCUUCAUUUUAUAAAGUUGUAUUUAGAAAAGUCUUAAGUAUUUGGAAUUCUCGGGUGCCAA`, “RBNS enrichment (R)” read 0.778.

Mixed results
P1: viral docking peptide; TSVRRALFTGGSD; partner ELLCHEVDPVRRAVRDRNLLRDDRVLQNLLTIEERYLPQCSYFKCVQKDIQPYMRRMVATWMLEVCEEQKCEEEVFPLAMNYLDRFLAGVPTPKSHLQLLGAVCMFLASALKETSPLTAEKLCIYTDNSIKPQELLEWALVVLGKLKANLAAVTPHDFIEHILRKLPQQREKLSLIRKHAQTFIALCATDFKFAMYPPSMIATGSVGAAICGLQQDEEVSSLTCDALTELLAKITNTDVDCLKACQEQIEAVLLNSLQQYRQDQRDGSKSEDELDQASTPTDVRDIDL
Under cross-linked residues, `SRSF3 (Homo sapiens, UniProt P84103)` is recorded as “T24 to K165” (SRSF6 (Homo sapiens, UniProt Q13247); cross-linking MS; cell fractions; added: DSSO).
For `P1 L7M`, “normalised enrichment score” read 0.312 (CCND2, cyclin fold, Cln2 fusion (human); yeast growth competition, sequencing; yeast; weak parent motif; reference: not given, higher = stronger binding).
Under interaction screen, `ATP5PB (Homo sapiens, UniProt P24539)` is recorded as “cross-linked” (ATP5PO (Homo sapiens, UniProt P48047); cross-linking MS; hits only).
